# Measured values collected from several papers.
# Lines come from different studies, so protocols differ. Numbers after ± are the reported error.
# Target: Tyrosine-protein kinase FRK (FRK, Homo sapiens, UniProt P42685)
# Chain of UniProt P42685 (whole entry, looked up): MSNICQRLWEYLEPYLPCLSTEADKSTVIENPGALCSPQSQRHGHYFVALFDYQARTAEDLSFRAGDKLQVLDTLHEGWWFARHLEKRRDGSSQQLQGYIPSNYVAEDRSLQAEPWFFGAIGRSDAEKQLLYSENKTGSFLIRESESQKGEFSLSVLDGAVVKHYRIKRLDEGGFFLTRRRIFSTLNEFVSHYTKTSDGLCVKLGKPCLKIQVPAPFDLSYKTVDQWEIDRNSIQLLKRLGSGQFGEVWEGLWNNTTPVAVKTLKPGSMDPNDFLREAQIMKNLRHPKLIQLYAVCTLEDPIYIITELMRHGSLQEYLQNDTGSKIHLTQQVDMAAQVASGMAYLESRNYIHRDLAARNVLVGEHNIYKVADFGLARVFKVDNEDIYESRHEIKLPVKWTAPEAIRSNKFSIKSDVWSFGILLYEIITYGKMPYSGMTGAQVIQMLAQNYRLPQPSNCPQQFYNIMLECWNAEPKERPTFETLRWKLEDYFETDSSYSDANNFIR
Compound,test,setting,scale,endpoint,result
Cc1cc(Nc2cc(N3CCN(C)CC3)nc(Sc3ccc(NC(=O)C4CC4)cc3)n2)[nH]n1,"kinase activity, KinaseProfiler","0.03 µM, species human",baseline: control,remaining activity,99%
[2H]c1cc(C)c(NC(=O)c2cnc(Nc3cc(N4CCCCC4)nc(C)n3)s2)c(Cl)c1,,0.0001 µM,,inhibition,> 50%
C=CC(=O)N1CCC[C@@H](n2nc(-c3ccc(Oc4ccccc4)cc3)c3c(N)ncnc32)C1,,10 µM,,remaining activity,93.7%
C=CC(=O)N1CCC([C@@H]2CCNc3c(C(N)=O)c(-c4ccc(Oc5ccccc5)cc4)nn32)CC1,"kinase activity, inhibitor, HotSpot radiometric","100 nM, with: ATP 10 µM",,remaining activity,91 ± 1.2%
C=CC(=O)N1CCC(COCC(=O)N2CCN(c3nc(-c4cnc(N)nc4C(F)F)nc(N4CCOC[C@@H]4C)n3)CC2)CC1,KINOMEscan,1 µM,,remaining binding,96%
COc1ccc(F)cc1C(=O)NCc1ccc(-c2nn([C@@H](C)C(F)(F)F)c(N)c2C(N)=O)cc1,"kinase activity, inhibitor, HotSpot radiometric","1000 nM, with: ATP at Km",,remaining activity,98.4 ± 2.8%
COc1cc(F)ccc1-c1ncnc(Nc2cccc(C[S@](C)(=N)=O)c2)n1,kinase activity,"10 µM, with: 10 µM ATP",,remaining activity,55%
C=CC(=O)N1CCC[C@@H](n2nc(-c3ccc(Oc4ccccc4)cc3)c3c(N)ncnc32)C1,"kinase activity, inhibitor, HotSpot radiometric","100 nM, with: ATP 10 µM",,remaining activity,73.1 ± 1.1%
[2H]c1cc(C)c(NC(=O)c2cnc(Nc3cc(N4CCC(O)CC4)nc(C)n3)s2)c(Cl)c1,,0.001 µM,,inhibition,> 50%

# Some of these lines once more:
Compound,test,setting,scale,endpoint,result
[2H]c1cc(C)c(NC(=O)c2cnc(Nc3cc(N4CCCCC4)nc(C)n3)s2)c(Cl)c1,,0.0001 µM,,inhibition,> 50%
